# Literature values, collected from citations in different studies.
# Lines come from different studies, so protocols differ. Values joined by “and” are separate records of one study, mostly repeats; a detail may differ.
# Organism: Plasmodium falciparum
Compound,assay,test system,conditions,IC50
S=C(NCCCNCCCCCCNCCCNC(=S)NCc1ccccc1)NCc1ccccc1,parasite growth,3D7,intraerythrocytic stage,106 nM
O=CN(O)CCCP(=O)(O)O,parasite growth,,blood stage,181 nM
O=P(O)(O)C(O)(Cn1ccnc1)P(=O)(O)O,parasite growth,,,> 70000 nM
COc1ccc(NS(=O)(=O)c2cc(NC(=O)Cn3ccccc3=O)ccc2N2CCCCC2)cc1,,3D7,"72 h, whole cell",695 nM
C/C=C1\NC(=O)[C@H]2CSSCC/C=C/[C@H](CC(=O)N[C@H](C(C)C)C(=O)N2)OC(=O)[C@H](C(C)C)NC1=O,growth,asexual stage,,100 nM
N/C(CC(O)c1cc2c(F)cc(F)cc2c2cc(C(F)(F)F)ccc12)=N\N=C\c1ccc(F)cc1 (stereo not drawn),,Dd2,asexual blood stages,3 nM and 2.9 nM
O=C1C(O)=C([C@H]2CC[C@H](c3ccc(Cl)cc3)CC2)C(=O)c2ccccc21,,3D7,"72 h, whole cell",1 nM
O=CN(O)CCCP(=O)(O)O,,fresh clinical Cameroonian isolates,,301 nM
C[N+](C)(C)CCCCCCCCCC[N+](C)(C)C,growth,,,1000 nM
CC1=C2Cc3cc(ccc3O)C(=O)O[C@H](C(C)(C)Br)CC[C@](C)(O)[C@H](Br)CC[C@]2(C)[C@@H](Br)CC1,,chloroquine-resistant,,< 1000 nM
O=C(Nc1ccccc1O)c1ccc(S(=O)(=O)c2ccc(Cl)cc2)cc1,,3D7,"72 h, whole cell",1340 nM
CCCCCCCCCC[N+](C)(C)C,growth,,,700 nM

# A few entries again:
Compound,assay,test system,conditions,IC50
N/C(CC(O)c1cc2c(F)cc(F)cc2c2cc(C(F)(F)F)ccc12)=N\N=C\c1ccc(F)cc1 (stereo not drawn),,Dd2,asexual blood stages,3 nM and 2.9 nM
O=C1C(O)=C([C@H]2CC[C@H](c3ccc(Cl)cc3)CC2)C(=O)c2ccccc21,,3D7,"72 h, whole cell",1 nM
